Measurements from different studies.
Each line is one published result; not all experiments were run side by side. ± gives the spread as reported.
DCLRE1A: DNA cross-link repair 1A protein (DCLRE1A, Homo sapiens, UniProt Q6PJP8)
Sequence of UniProt Q6PJP8 (whole entry, looked up): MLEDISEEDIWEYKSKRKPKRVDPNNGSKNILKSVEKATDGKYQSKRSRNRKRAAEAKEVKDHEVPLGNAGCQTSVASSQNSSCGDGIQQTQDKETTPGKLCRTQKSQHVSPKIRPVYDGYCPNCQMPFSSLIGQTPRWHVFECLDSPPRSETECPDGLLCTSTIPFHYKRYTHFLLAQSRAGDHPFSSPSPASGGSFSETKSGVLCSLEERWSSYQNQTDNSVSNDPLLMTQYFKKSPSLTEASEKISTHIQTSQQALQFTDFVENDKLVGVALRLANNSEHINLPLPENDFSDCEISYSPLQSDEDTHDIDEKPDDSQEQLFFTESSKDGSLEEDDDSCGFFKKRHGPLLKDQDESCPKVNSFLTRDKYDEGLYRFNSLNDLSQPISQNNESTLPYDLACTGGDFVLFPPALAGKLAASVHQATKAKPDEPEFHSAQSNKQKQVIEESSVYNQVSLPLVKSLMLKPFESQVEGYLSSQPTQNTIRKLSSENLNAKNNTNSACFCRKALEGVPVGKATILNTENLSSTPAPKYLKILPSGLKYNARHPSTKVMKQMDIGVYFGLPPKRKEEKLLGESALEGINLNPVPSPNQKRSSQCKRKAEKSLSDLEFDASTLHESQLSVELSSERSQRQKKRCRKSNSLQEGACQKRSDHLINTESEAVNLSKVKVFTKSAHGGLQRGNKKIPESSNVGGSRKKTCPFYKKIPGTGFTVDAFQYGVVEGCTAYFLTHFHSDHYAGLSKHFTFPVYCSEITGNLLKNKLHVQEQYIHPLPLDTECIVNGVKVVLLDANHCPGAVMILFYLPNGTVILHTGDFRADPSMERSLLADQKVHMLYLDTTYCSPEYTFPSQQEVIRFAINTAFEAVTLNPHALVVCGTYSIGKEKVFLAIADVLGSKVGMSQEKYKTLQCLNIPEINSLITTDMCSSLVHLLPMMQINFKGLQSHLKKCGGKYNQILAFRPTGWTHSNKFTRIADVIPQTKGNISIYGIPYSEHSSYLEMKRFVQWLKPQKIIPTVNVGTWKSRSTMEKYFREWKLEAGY
NTRK1: High affinity nerve growth factor receptor (NTRK1, Homo sapiens, UniProt P04629)
Sequence of UniProt P04629 (whole entry, looked up): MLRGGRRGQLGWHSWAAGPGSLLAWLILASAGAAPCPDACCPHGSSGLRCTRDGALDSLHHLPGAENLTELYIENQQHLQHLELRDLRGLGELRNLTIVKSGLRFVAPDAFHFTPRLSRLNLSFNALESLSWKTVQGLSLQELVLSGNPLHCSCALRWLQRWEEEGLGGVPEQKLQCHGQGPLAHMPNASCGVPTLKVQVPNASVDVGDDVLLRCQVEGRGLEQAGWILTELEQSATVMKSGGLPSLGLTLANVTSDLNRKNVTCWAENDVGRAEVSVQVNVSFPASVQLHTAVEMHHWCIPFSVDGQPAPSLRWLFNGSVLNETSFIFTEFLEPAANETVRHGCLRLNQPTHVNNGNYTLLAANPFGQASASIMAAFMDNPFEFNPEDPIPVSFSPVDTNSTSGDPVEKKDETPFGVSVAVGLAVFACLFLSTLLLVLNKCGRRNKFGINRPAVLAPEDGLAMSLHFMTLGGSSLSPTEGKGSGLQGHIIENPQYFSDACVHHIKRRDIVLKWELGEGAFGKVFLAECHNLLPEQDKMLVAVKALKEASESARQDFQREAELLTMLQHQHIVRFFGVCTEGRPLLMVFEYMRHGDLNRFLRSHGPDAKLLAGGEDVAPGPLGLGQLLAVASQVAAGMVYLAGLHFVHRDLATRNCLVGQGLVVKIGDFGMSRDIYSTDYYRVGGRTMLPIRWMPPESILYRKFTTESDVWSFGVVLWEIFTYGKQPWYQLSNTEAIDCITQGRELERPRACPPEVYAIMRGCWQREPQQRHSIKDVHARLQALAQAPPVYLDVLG
Sequence of UniProt P10398 (whole entry, looked up): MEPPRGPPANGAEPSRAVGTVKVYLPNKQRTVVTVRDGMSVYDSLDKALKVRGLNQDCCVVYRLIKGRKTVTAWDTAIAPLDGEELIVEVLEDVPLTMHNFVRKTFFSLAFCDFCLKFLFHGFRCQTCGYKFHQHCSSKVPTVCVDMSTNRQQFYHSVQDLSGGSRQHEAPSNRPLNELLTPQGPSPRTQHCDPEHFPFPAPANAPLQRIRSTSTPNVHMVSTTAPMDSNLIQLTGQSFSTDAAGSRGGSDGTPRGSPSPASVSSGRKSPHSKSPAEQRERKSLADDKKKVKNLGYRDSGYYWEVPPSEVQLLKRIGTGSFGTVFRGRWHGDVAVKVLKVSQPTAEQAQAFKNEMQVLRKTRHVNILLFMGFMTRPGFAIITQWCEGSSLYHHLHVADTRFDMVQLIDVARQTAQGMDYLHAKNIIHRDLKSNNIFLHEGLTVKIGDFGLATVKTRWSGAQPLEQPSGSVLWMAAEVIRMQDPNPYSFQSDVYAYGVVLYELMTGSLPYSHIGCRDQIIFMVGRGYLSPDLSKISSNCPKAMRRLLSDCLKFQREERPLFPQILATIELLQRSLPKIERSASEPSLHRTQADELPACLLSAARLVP
Sequence of UniProt P19784 (whole entry, looked up): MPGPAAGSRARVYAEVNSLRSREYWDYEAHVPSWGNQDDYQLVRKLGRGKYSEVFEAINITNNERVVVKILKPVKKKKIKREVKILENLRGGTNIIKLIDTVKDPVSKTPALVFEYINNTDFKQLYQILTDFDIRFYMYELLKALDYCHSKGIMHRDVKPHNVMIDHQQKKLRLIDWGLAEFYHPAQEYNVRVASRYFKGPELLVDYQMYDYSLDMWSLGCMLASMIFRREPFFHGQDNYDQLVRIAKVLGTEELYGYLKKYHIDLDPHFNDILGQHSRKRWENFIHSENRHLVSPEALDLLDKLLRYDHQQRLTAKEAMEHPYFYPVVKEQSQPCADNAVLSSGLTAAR
Sequence of UniProt P52564 (whole entry, looked up): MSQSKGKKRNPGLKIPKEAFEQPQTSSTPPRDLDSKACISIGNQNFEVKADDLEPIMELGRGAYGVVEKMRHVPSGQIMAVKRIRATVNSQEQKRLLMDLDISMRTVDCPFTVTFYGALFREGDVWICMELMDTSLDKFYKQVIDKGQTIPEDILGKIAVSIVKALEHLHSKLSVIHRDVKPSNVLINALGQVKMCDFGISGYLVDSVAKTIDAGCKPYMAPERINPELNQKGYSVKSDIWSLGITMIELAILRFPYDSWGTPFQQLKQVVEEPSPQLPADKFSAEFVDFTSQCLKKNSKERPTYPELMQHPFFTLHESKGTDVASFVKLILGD
Sequence of UniProt Q4JIM5 (whole entry, looked up): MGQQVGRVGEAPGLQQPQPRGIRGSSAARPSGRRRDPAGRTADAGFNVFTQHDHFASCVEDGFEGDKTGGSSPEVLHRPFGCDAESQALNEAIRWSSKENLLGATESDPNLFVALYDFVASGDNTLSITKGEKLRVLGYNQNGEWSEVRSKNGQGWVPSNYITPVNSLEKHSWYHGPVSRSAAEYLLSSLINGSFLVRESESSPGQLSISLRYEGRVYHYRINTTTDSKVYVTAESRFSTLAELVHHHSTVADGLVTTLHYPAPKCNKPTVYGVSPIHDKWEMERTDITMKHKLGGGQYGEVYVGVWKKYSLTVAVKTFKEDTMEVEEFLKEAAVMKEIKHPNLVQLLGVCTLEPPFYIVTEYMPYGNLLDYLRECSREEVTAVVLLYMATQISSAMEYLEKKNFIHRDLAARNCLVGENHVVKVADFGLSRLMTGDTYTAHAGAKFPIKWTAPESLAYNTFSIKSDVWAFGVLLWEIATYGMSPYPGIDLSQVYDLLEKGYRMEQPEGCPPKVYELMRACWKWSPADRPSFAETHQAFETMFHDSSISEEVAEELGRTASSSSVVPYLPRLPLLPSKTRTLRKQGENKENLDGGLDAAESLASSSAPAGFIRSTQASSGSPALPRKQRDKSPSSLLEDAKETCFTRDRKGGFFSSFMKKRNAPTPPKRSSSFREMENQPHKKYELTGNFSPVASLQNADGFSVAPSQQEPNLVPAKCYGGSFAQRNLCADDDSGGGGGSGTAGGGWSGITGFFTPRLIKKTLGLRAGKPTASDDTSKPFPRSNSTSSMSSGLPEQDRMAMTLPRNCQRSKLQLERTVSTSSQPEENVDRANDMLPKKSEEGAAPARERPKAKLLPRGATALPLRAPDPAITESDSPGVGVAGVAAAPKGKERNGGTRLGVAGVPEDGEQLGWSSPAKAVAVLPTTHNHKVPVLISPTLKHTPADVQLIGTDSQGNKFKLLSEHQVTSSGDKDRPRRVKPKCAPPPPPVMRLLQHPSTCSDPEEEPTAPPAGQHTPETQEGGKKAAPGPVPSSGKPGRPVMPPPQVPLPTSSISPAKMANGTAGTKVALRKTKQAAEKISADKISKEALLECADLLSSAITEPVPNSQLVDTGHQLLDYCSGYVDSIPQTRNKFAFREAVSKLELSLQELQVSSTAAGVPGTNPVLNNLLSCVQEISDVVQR
Sequence of UniProt Q14012 (whole entry, looked up): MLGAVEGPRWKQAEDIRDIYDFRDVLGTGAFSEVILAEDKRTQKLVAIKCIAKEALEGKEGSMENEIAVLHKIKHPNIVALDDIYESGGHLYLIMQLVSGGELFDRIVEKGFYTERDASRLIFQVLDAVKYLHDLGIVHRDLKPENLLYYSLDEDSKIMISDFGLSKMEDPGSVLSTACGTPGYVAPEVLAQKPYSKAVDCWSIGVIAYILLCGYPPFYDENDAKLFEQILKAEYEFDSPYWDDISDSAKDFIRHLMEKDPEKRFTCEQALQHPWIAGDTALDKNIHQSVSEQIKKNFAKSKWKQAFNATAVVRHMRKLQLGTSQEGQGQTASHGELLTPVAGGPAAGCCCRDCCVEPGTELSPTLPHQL

`CCOc1c([C@H](C)n2nc(C)c3c(N)ncnc32)cc(Cl)c(F)c1[C@@H]1CNC(=O)C1` — result for “observations with ΔQTcF >30 to ≤60 ms”: 0.9% (human B-cell malignancy patients; oral, 30 mg once daily, baseline QTcF ≤450 ms).
For `O=C(O)c1ccc(Nc2ncc3c(n2)-c2ccc(Cl)cc2C(c2c(F)cccc2F)=NC3)cc1`, the remaining activity was 100% (MSSK1(h); kinase activity; 1 µM).
With `COc1cc(-c2cncc3c2CN(C)Cc2cc(N4CCNCC4)ccc2-3)cc(OC)c1OC` the remaining activity was 105% (ARAF (Homo sapiens, UniProt P10398); kinase activity; 1 µM, human enzyme, added: ATP 10 µM; relative to: DMSO control).
With `NC/C(=C\F)COc1cccc(Cn2c(=S)[nH]c(=O)c3[nH]cnc32)c1` the remaining activity was 9.49% (Myeloperoxidase (MPO, Homo sapiens, UniProt P05164); LDL lipid peroxidation, inhibitor, cholesteryl ester hydroperoxide; 0.1667 µM).
With `COc1ccc(F)cc1C(=O)NCc1ccc(-c2nn([C@@H](C)C(F)(F)F)c(N)c2C(N)=O)cc1` the remaining activity was 92.9 ± 0.9% (CAMK1 (Homo sapiens, UniProt Q14012); kinase activity, inhibitor, HotSpot radiometric; 100 nM, added: ATP 10 µM).
`Cc1cccc2c3c(ccc12)C1=C(C(=O)C3=O)[C@@H](C)CO1` gave a remaining activity of 27% (DCLRE1A; exonuclease activity, inhibitor, fluorescence HTS; 10 µM, 80 min, added: 8 nM 5P-FQ substrate; relative to: high and low controls).
`COc1cc(N2CCN(C)CC2)ccc1Nc1nc(N)n(C(=S)NCc2c(Cl)cccc2Cl)n1` has a remaining activity of 32% (CSNK2A2 (Homo sapiens, UniProt P19784); enzyme activity; 10 µM; relative to: control).
`O=C(O[C@@H]1Cc2c(O)cc(O)cc2O[C@@H]1c1cc(O)c(=O)c2c(O)c(O)cc([C@H]3Oc4cc(O)cc(O)c4C[C@H]3OC(=O)c3cc(O)c(O)c(O)c3)c2c1)c1cc(O)c(O)c(O)c1` has a remaining activity of 27.2% (DCLRE1A; 10 µM).
`O=C1NC(=O)/C(=C/c2ccc(-c3ccc(F)cc3O)o2)S1` gave a remaining activity of 79% (NTRK1; enzyme activity; 10 µM).
`Cc1c2oc3c(C)ccc(C(=O)N[C@@H]4C(=O)N[C@H](C(C)C)C(=O)N5CCC[C@H]5C(=O)N(C)CC(=O)N(C)[C@@H](C(C)C)C(=O)O[C@@H]4C)c3nc-2c(C(=O)N[C@@H]2C(=O)N[C@H](C(C)C)C(=O)N3CCC[C@H]3C(=O)N(C)CC(=O)N(C)[C@@H](C(C)C)C(=O)O[C@@H]2C)c(N)c1=O` gave a remaining activity of 36.9% (DCLRE1A; exonuclease activity, inhibitor, fluorescence HTS; 10 µM, 80 min, added: 8 nM 5P-FQ substrate).
`N#CCC(=O)Nc1ccc(C2CCCCC2)cc1` has a hepatic clearance of 81 mL/min/kg (hepatocyte stability; cryopreserved mouse hepatocytes; 1 µM).
With `Cc1cc(Nc2cc(N3CCN(C)CC3)nc(Sc3ccc(NC(=O)C4CC4)cc3)n2)[nH]n1` the remaining activity was 23% (Abl2 (Mus musculus, UniProt Q4JIM5); kinase activity, KinaseProfiler; 0.03 µM, species mouse; relative to: control).
`COc1cc(F)ccc1-c1ncnc(Nc2cccc(C[S@](C)(=N)=O)c2)n1` has a remaining activity of 20% (NTRK1; kinase activity; 10 µM, added: 10 µM ATP).
With `O=C(NCCN1CCCC1=O)c1ccc([C@H]2[C@@H](F)[C@@H](F)C[C@@H](F)[C@H]2F)cc1` the hepatic clearance was 10 mL/min/kg (hepatocyte stability; cryopreserved rat hepatocytes; 1 µM).
For `CC(C)C[C@H](NC(=O)C[C@H](O)[C@H](CC(C)C)NC(=O)[C@H](Cc1c[nH]cn1)NC(=O)CNC(=O)[C@@H](NC(=O)[C@H](C)NC(=O)[C@H](Cc1c[nH]c2ccccc12)NC(=O)[C@H](CCC(N)=O)NC(=O)[C@@H](Cc1ccccc1)NC(=O)COCCOCCNC(=O)CCC(C(=O)O)N1CCN(CC(=O)O)CCN(CC(=O)O)CCN(CC(=O)O)CC1)C(C)C)C(N)=O` (stereo partly drawn) [lutetium-177 labelled], the tissue uptake was 10.2 ± 1.7 %ID/g (BALB/c nu/nu mice, female, kidneys; 100 pmol, 30 min, time course 0.5 h, added: PA 300 µg).
`Cn1cc(-c2ccc(-c3cncc(Cl)c3N3CCC4(CCNC4=O)CC3)cc2)cn1`: “log2 fold change” -1.43 (COLO 205; gene expression, microarray, measured: KIAA0101 mRNA; concentration not given, 6 h; relative to: untreated cells).
With `O=C1OC2(c3ccc(O)cc3Oc3cc(O)ccc32)c2ccccc21` the remaining activity was 14.2% (DCLRE1A; exonuclease activity, inhibitor, fluorescence HTS; 10 µM, 80 min, added: 8 nM 5P-FQ substrate).
With `CC#CC(=O)N1CCC[C@H]1c1nc(-c2ccc(C(=O)Nc3ccccn3)cc2)c2c(N)nccn12` the remaining activity was 91.7 ± 4.1% (MAP2K6 (Homo sapiens, UniProt P52564); kinase activity, inhibitor, HotSpot radiometric; 100 nM, added: ATP 10 µM).
`C=CC(=O)N1CCC[C@@H](n2nc(-c3ccc(Oc4ccccc4)cc3)c3c(N)ncnc32)C1` has a remaining activity of 134% (EPHB1 (Homo sapiens, UniProt P54762); 0.1 µM).
For `COc1cc(Nc2ncc3c(n2)-c2ccc(Cl)cc2C(c2c(F)cccc2OC)=NC3)ccc1C(=O)O`, the remaining activity was 94% (CLK3; kinase activity; 1 µM).
`COc1cccc2c1C(=O)c1c(O)c3c(c(O)c1C2=O)C[C@@](O)(C(=O)CO)C[C@@H]3O[C@H]1C[C@H](N)[C@H](O)[C@H](C)O1` gave a remaining activity of 48.5% (DCLRE1A; exonuclease activity, inhibitor, fluorescence HTS; 10 µM, 80 min, added: 8 nM 5P-FQ substrate).
